Results collected from several papers.
Compare with care: the assays were run in different laboratories. ± gives the spread as reported.
Method: steady-state kinetics
B1: protein (Trichoderma virens, UniProt G9MQB8); chain GQVPVSVNYHFSRKCNKECLFCFHTATTSHVEKPENAKRGLTLLKQAGMKKINFAGGEPFLYPKFLGEMIDFCKETLQLESVSIVTNGSLVKEQFLQKHGRNIDILAVSCDSFNEATNIKIGRGSGDNVQKLYEIGSWCQKYDIKFKLNTVVNKFNHLEDMNDHLNALQPFRWKCFQVLIVTGENDSDKTLRNAHSLTISDDEFDRFCERHSSQTCLVPEPNRLMAKSYLILDEYMRFLDRNGQQPSKSILEVGVQQALQAVFWDEEAFVERGGIYDWNKSSCSSDSKDLEW
B2: BaiA2 (Clostridium scindens, UniProt P19337); chain MNLVQDKVTIITGGTRGIGFAAAKIFIDNGAKVSIFGETQEEVDTALAQLKELYPEEEVLGFAPDLTSRDAVMAAVGQVAQKYGRLDVMINNAGITSNNVFSRVSEEEFKHIMDINVTGVFNGAWCAYQCMKDAKKGVIINTASVTGIFGSLSGVGYPASKASVIGLTHGLGREIIRKNIRVVGVAPGVVNTDMTNGNPPEIMEGYLKALPMKRMLEPEEIANVYLFLASDLASGITATTVSVDGAYRP
B3: enzyme E323G (UniProt H9KVH3); chain ADASQIVSEMGAGWNLGNQLEAAVNGTPNETAWGNPTVTPELIKKVKAAGFKSIRIPVSYLNNIGSAPNYTINAAWLNRIQQVVDYAYNEGLYVIINIHGDGYNSVQGGWLLVNGGNQTAIKEKYKKVWQQIATKFSNYNDRLIFESMNEVFDGNYGNPNSAYYTNLNAYNQIFVDTVRQTGGNNNARWLLVPGWNTNIDYTVGNYGFTLPTDNYRSSAIPSSQKRIMISAHYYSPWDFAGEENGNITQWGATSTNPAKKSTWGQEDYLESQFKSMYDKFVTQGYPVVIGGFGSIDKTSYDSSNNVYRAAYAKAVTAKAKKYKMVPVYWDNGHNGQHGFALFNRSNNTVTQQNIINAIMQGMQ
B4: hflX K210A/N207A (Escherichia coli, UniProt P25519); chain MFDRYDAGEQAVLVHIYFTQDKDMEDLQEFESLVSSAGVEALQVITGSRKAPHPKYFVGEGKAVEIAEAVKATGASVVLFDHALSPAQERNLERLCECRVIDRTGLILDIFAQRARTHEGKLQVELAQLRHLATRLVRGWTHLERQKGGIGLRGPGETQLETDRRLLRNRIVQIQSRLERVEKQREQGRQSRIKADVPTVSLVGYTAAGASTLFNRITEARVYAADQLFATLDPTLRRIDVADVGETVLADTVGFIRHLPHDLVAAFKATLQETRQATLLLHVIDAADVRVQENIEAVNTVLEEIDAHEIPTLLVMNKIDMLEDFEPRIDRDEENKPNRVWLSAQTGAGIPQLFQALTERLSGEVAQHTLRLPPQEGRLRSRFYQLQAIEKEWMEEDGSVSLQVRMPIVDWRRLCKQEPALIDYLI
B5: MCAT R178G (Homo sapiens, UniProt Q8IVS2); chain GQGSQVVGMGRGLLNYPRVRELYAAARRVLGYDLLELSLHGPQETLDRTVHCQPAIFVASLAAVEKLHHLQPSVIENCVAAAGFSVGEFAALVFAGAMEFAEGLYAVKIGAEAMQEASEAVPSGMLSVLGQPQSKFNFACLEAREHCKSLGIENPVCEVSNYLFPDCRVISGHQEALRFLQKNSSKFHFRRTRMLPVSGAFHTRLMEPAVEPLTQALKAVDIKKPLVSVYSNVHAHRYRHPGHIHKLLAQQLVSPVKWEQTMHAIYERKKGRGFPQTFEVGPGRQLGAILKSCNMQAWKSYSAVDVL
B6: ASRGL1 (Homo sapiens, UniProt Q7L266); chain 1 MNPIVVVHGGGAGPISKDRKERVHQGMVRAATVGYGILREGGSAVDAVEGAVVALEDDPEFNAGCGSVLNTNGEVEMDASIMDGKDLSAGAVSAVQCIANPIKLARLVMEKTPHCFLTDQGAAQFAAAMGVPEIPGEKLVTERNKKRLEKEKHEKGAQKTDCQKNLG; chain 2 TVGAVALDCKGNVAYATSTGGIVNKMVGRVGDSPCLGAGGYADNDIGAVSTTGHGESILKVNLARLTLFHIEQGKTVEEAADLSLGYMKSRVKGLGGLIVVSKTGDWVAKWTSTSMPWAAAKDGKLHFGIDPDDTTITDLP
B7: UGT88A1 V18R (Arabidopsis thaliana, UniProt Q9LK73); chain MGEEAIVLYPAPPIGHLRSMVELGKTILSKNPSLSIHIILVPPPYQPESTATYISSVSSSFPSITFHHLPAVTPYSSSSTSRHHHESLLLEILCFSNPSVHRTLFSLSRNFNVRAMIIDFFCTAVLDITADFTFPVYFFYTSGAACLAFSFYLPTIDETTPGKNLKDIPTVHIPGVPPMKGSDMPKAVLERDDEVYDVFIMFGKQLSKSSGIIINTFDALENRAIKAITEELCFRNIYPIGPLIVNGRIEDRNDNKAVSCLNWLDSQPEKSVVFLCFGSLGLFSKEQVIEIAVGLEKSGQRFLWVVRNPPELEKTELDLKSLLPEGFLSRTEDKGMVVKSWAPQVPVLNHKAVGGFVTHCGWNSILEAVCAGVPMVAWPLYAEQRFNRVMIVDEIKIAISMNESETGFVSSTEVEKRVQEIIGECPVRERTMAMKNAAELALTETGSSHTALTTLLQSWSPK
B8: clpA (Escherichia coli, UniProt P0ABH9); chain MLNQELELSLNMAFARAREHRHEFMTVEHLLLALLSNPSAREALEACSVDLVALRQELEAFIEQTTPVLPASEEERDTQPTLSFQRVLQRAVFHVQSSGRNEVTGANVLVAIFSEQESQAAYLLRKHEVSRLDVVNFISHGTRKDEPTQSSDPGSQPNSEEQAGGEERMENFTTNLNQLARVGGIDPLIGREKELERAIQVLCRRRKNNPLLVGESGVGKTAIAEGLAWRIVQGDVPEVMADCTIYSLDIGSLLAGTKYRGDFEKRFKALLKQLEQDTNSILFIDEIHTIIGAGAASGGQVDAANLIKPLLSSGKIRVIGSTTYQEFSNIFEKDRALARRFQKIDITEPSIEETVQIINGLKPKYEAHHDVRYTAKAVRAAVELAVKYINDRHLPDKAIDVIDEAGARARLMPVSKRKKTVNVADIESVVARIARIPEKSVSQSDRDTLKNLGDRLKMLVFGQDKAIEALTEAIKMARAGLGHEHKPVGSFLFAGPTGVGKTEVTVQLSKALGIELLRFDMSEYMERHTVSRLIGAPPGYVGFDQGGLLTDAVIKHPHAVLLLDEIEKAHPDVFNILLQVMDNGTLTDNNGRKADFRNVVLVMTTNAGVRETERKSIGLIHQDNSTDAMEEIKKIFTPEFRNRLDNIIWFDHLSTDVIHQVVDKFIVELQVQLDQKGVSLEVSQEARNWLAEKGYDRAMGARPMARVIQDNLKKPLANELLFGSLVDGGQVTVALDKEKNELTYGFQSAQKHKAEAAH
B9: Paox H64N (Mus musculus, UniProt Q8C0L6); chain MAFPGPRVLVVGSGIAGLGAAQKLCSHRAAPHLRVLEATASAGGRIRSERCFGGVVELGAHWINGPSQDNPVFQLAAEFGLLGEKELSEENQLVDTGGHVALPSMIWSSSGTSVSLELMTEMARLFYGLIERTREFLNESETPMASVGEFLKKEISQQVASWTEDDEDTRKRKLAILNTFFNIECCVSGTHSMDLVALAPFGEYTVLPGLDCILAGGYQGLTDRILASLPKDTVAFDKPVKTIHWNGSFQEAAFPGETFPVLVECEDGARLPAHHVIVTVPLGFLKEHQDTFFEPPLPAKKAEAIKKLGFGTNNKIFLEFEEPFWEPDCQFIQVVWEDTSPLQDTALSLQDTWFKKLIGFLVQPSFESSHVLCGFIAGLESEFMETLSDEEVLLSLTQVLRRVTGNPQLPAAKSVRRSQWHSAPYTRGSYSYVAVGSTGDDLDLMAQPLPEDGTGTQLQVLFAGEATHRTFYSTTHGALLSGWREADRLVSLWDSQVEQSRPRL
B10: LdmS (Staphylococcus aureus, UniProt Q2FWC5); chain MTNNGNEPNLTLSDLYDKDVVYTSRPSYISNPWLKPDEHQSNFLTGRELLIANQLPVIVHEASATDKLHQLFQVIGKEVPNSIYTFNNQQSYENLIKQLAHKENKKIYFQYIHDETILNQQYYALDKTLFVALNNKARIPEWTNGKFLPKRKVVKIEQFENEIKNWEFPLVIKPGDDLPTAGGYGVMICYHDADLQKAITRIKEATAETNSLIIEQKIEEKANYCVQFAYSESLGIQYLGAATQLTDKYGFYNGNENTTNVPEHVIEAGRQIMENGVNQGFFGVAGFDLLVDEDDNVYAIDLNFRQNGSTSMLLLANELNSGYQKFYSYHSKGDNTHFFNTILKYVKEGSLYPLSYYDGDWYGEDKVKSRFGCIWHGDSKETVLENERAFLAELEHY
B11: protein (Streptomyces coelicolor, UniProt P16544); chain MATQDSEVALVTGATSGIGLEIARRLGKEGLRVFVCARGEEGLRTTLKELREAGVEADGRTCDVRSVPEIEALVAAVVERYGPVDVLVNNAGRPGGGATAELADELWLDVVETNLTGVFRVTKQVLKAGGMLERGTGRIVNIASTGGKQGVVHAAPYSASKHGVVGFTKALGLELARTGITVNAVCPGFVETPMAASVREHYSDIWEVSTEEAFDRITARVPIGRYVQPSEVAEMVAYLIGPGAAAVTAQALNVCGGLGNY
Sequence of UniProt Q9SKC5 (whole entry, looked up): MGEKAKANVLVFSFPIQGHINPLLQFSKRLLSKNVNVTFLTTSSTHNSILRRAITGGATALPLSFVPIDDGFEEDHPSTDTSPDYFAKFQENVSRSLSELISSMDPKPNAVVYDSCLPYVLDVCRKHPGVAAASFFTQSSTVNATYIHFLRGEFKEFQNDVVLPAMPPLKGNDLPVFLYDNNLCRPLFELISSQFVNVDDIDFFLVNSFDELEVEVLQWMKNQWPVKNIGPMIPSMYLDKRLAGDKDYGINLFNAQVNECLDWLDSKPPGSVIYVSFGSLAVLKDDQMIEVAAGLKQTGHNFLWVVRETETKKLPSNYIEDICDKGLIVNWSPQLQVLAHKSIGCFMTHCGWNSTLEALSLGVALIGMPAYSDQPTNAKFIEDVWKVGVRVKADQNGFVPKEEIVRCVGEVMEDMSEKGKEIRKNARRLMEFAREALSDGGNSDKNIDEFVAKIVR

B1 (protein) — kcat (O=c1ccn([C@@H]2O[C@H](COP(=O)(O)OP(=O)(O)OP(=O)(O)O)[C@@H](O)[C@H]2O)c(=O)[nH]1; pH 7.5, KCl 150 mM, added: SAM 1 mM, dithionite 5 mM): 0.0075 ± 0.0005 s⁻¹
B2 (BaiA2) — kcat (C[C@H](CCC(=O)SCCNC(=O)CCNC(=O)[C@H](O)C(C)(C)COP(=O)(O)OP(=O)(O)OC[C@H]1O[C@@H](n2cnc3c(N)ncnc32)[C@H](O)[C@@H]1OP(=O)(O)O)[C@H]1CC[C@H]2[C@@H]3CC[C@@H]4C[C@H](O)CC[C@]4(C)[C@H]3C[C@H](O)[C@]12C; pH 8.7, 37 °C, added: NAD+): 0.158 s⁻¹
B3 (enzyme E323G) — kcat (OC[C@H]1O[C@@H](O[C@H]2[C@@H](OC[C@H]3O[C@@H](O[C@H]4[C@H](O)[C@@H](O)[C@H](O[C@H]5[C@H](O)[C@@H](O)[C@@H](F)O[C@@H]5CO)O[C@@H]4CO[C@H]4OC[C@@H](O)[C@H](O)[C@H]4O[C@@H]4O[C@H](CO)[C@H](O)[C@H](O)[C@H]4O)[C@H](O)[C@@H](O)[C@@H]3O[C@@H]3O[C@H](CO[C@H]4OC[C@@H](O)[C@H](O)[C@H]4O)[C@@H](O)[C@H](O)[C@H]3O)OC[C@@H](O)[C@@H]2O)[C@H](O)[C@@H](O)[C@H]1O; pH 7.5, 30 °C, apparent): 0.482 ± 0.02 s⁻¹
B4 (hflX K210A/N207A) — kcat (Nc1nc2c(ncn2[C@@H]2O[C@H](COP(=O)(O)OP(=O)(O)OP(=O)(O)O)[C@@H](O)[C@H]2O)c(=O)[nH]1; pH 8, 37 °C, added: MgCl2 5 mM, NaCl 200 mM): 0.00783 ± 0.0015 s⁻¹
B5 (MCAT R178G) — kcat (CC(C)(COP(=O)(O)OP(=O)(O)OC[C@H]1O[C@@H](n2cnc3c(N)ncnc32)[C@H](O)[C@@H]1OP(=O)(O)O)[C@@H](O)C(=O)NCCC(=O)NCCSC(=O)CC(=O)O; pH 6.8, 20 °C, labelled substrate, added: holo-ACP 20 µM): 0.00283 ± 0.000333 s⁻¹
B6 (ASRGL1) — kcat (COC(=O)C[C@H](N)C(=O)O; pH 7.4, 37 °C, NaCl 100 mM): 7.7 ± 0.3 s⁻¹
enzyme (UniProt A0A7J5BGR1) — kcat (Oc1ccc2c(c1)CCC2; pH 8, 25 °C): 2.3 s⁻¹
B7 (UGT88A1 V18R) — kcat (O=c1c(O)c(-c2ccc(O)c(O)c2)oc2cc(O)cc(O)c12; pH 6.8, 37 °C, added: UDP-glucose): 0.24 s⁻¹
UGT74D1 (Arabidopsis thaliana, UniProt Q9SKC5) — kcat (O=C(O)Cc1c[nH]c2ccccc12; pH 7.5, 30 °C): 0.809 s⁻¹
B8 (clpA) — kcat (Nc1ncnc2c1ncn2[C@@H]1O[C@H](CO[P@](=O)(O)O[P@](=O)(O)O[P@@](=O)(O)S)[C@@H](O)[C@H]1O; pH 7.5, 25 °C, NaCl 300 mM, no ClpP, no polypeptide, added: MgCl2 10 mM): 0.000833 ± 6.67e-05 s⁻¹
B9 (Paox H64N) — kcat (CC(=O)NCCCNCCCCNCCCN; pH 10, 30 °C): 4.1 ± 0.1 s⁻¹
B10 (LdmS) — kcat (Nc1ncnc2c1ncn2[C@@H]1O[C@H](COP(=O)(O)OP(=O)(O)OP(=O)(O)O)[C@@H](O)[C@H]1O; pH 8, 37 °C, added: L-Asp 50 mM, L-Met 10 mM, MgCl2 5 mM): 48 ± 1 s⁻¹
B11 (protein) — kcat (O[C@H]1CCCc2ccccc21; pH 7.4, phosphate 400 mM, NADPH 250 µM printed, added: NADP+, reverse reaction): 0.24 ± 0.01 s⁻¹
